Assay results collected from several papers.
Protocols differ between the studies behind these lines. ± gives the spread as reported.

Molecule | assay | test system | conditions | how to read | endpoint | result
Nc1ncnc2c1nc(-n1nnc3c1CCC1C(CO)C1CC3)n2C1CC(O)C(CO)O1 (mixture of isomers) | HDM-PAMPA |  | 75 µM, 16 h, ambient |  | fraction absorbed | 21%
Polymyxin B | ultrafiltration ELISA | 0.9% NaCl solution | 1 µg/mL, 10 kDa MMCO filter | reference: positive control | fraction in filtrate | 0%
CCCCc1oc2ccccc2c1C(=O)c1cc(I)c(OCCNCC)c(I)c1 | ultracentrifugation | human liver microsomes 0.25 mg/mL protein | 2 h, pH 7.4 |  | fraction unbound | 0.012 ± 0.004
NCCC(=O)N1Cc2ccccc2-c2c(nnn2-c2nc(N)c3ncn(C4OC(CO)C(O)C4O)c3n2)-c2ccccc21 (mixture of isomers) | HDM-PAMPA |  | 75 µM, 16 h, ambient |  | fraction absorbed | 22%
CC(C)(Sc1cc[n+]([O-])cc1-c1ccc(C#N)c2ccccc12)C(=O)OC1OC(C(=O)O)C(O)C(O)C1O (stereo not drawn) |  | urine | oral, 15 mg, 72 h, severe renal impairment | reference: dose | fraction excreted unchanged | 11.9%
COc1ccc(S(=O)(=O)N/N=C/c2ccc(C#N)cc2)cc1OC | PAMPA-GIT |  | 500 µM, 8 h |  | fraction absorbed | 100%
COC1C=COC2(C)Oc3c(C)c(O)c4c(c3C2=O)C2=NC3(CCN(CC(C)C)CC3)NC2=C(NC(=O)C(C)=CC=CC(C)C(O)C(C)C(O)C(C)C(OC(=O)Nc2cscn2)C1C)C4=O (stereo not drawn) |  | human plasma |  |  | fraction unbound | 0.018
O=C(Cc1ccccc1)Nc1nc2ccccc2n1Cc1ccccc1 |  | mouse liver microsomes | 0.5 µM, 1 mg/mL protein |  | fraction unbound | 38.6%
COC1C=COC2(C)Oc3c(C)c(O)c4c(c3C2=O)C2=NC3(CCN(CC(C)C)CC3)NC2=C(NC(=O)C(C)=CC=CC(C)C(O)C(C)C(O)C(C)C(OC(=O)Nc2cnccn2)C1C)C4=O (stereo not drawn) |  | caseum |  |  | fraction unbound | 0.0066
COC(=O)c1ccc(/C=N/NS(=O)(=O)c2ccc(OC)c(OC)c2)cc1 | PAMPA-GIT |  | 500 µM, 8 h |  | fraction absorbed | 100%
CC(C)(Sc1ccncc1-c1ccc(C#N)c2ccccc12)C(=O)OC1OC(C(=O)O)C(O)C(O)C1O (stereo not drawn) |  | urine | oral, 15 mg, 72 h, normal renal function | reference: dose | fraction excreted unchanged | 11.7%
COC1C=COC2(C)Oc3c(C)c(O)c4c(c3C2=O)C2=NC3(CCN(CC(C)C)CC3)NC2=C(NC(=O)C(C)=CC=CC(C)C(O)C(C)C(O)C(C)C(OC(=O)c2cccnc2)C1C)C4=O (stereo not drawn) | rapid equilibrium dialysis | mouse plasma |  |  | fraction unbound | 0.021

For quick reference, copied from above:
Molecule | assay | test system | conditions | how to read | endpoint | result
NCCC(=O)N1Cc2ccccc2-c2c(nnn2-c2nc(N)c3ncn(C4OC(CO)C(O)C4O)c3n2)-c2ccccc21 (mixture of isomers) | HDM-PAMPA |  | 75 µM, 16 h, ambient |  | fraction absorbed | 22%
CC(C)(Sc1cc[n+]([O-])cc1-c1ccc(C#N)c2ccccc12)C(=O)OC1OC(C(=O)O)C(O)C(O)C1O (stereo not drawn) |  | urine | oral, 15 mg, 72 h, severe renal impairment | reference: dose | fraction excreted unchanged | 11.9%
